Experimental data pooled from the literature.
“And” joins repeats or separate records; there may be more than shown.

The antigen-positive cells of `Nc1ncnc2c([C@@H]3N[C@H](CO)[C@@H](O)[C@H]3O)c[nH]c12` is reported as 8.34% (Zaire ebolavirus; antibody staining; human macrophages; 50 µM).
For `COc1cccc2c(N3CCc4ccccc4C3C)nc(Nc3ccc(F)cc3C)nc12` (stereo not shown), the EC90 was about 1.21 µM (SARS-CoV-2; viral replication, inhibitor; Vero E6, USA-WA1/2020; 24 h).
`Cc1c(O)cccc1C(=O)N[C@@H](CSc1ccccc1)[C@H](O)CN1C[C@H]2CCCC[C@H]2C[C@H]1C(=O)NC(C)(C)C` gave an EC50 of 5.22 µM (SARS-CoV-2; viral replication, GFP plate reader screen; cell-based).
With `Nc1ncnc2c1ncn2C1CCCO1` (stereo not shown) the IC50 was over 2 µM (SARS-CoV-2; viral replication; Huh-7).
The mean inhibition of `CC(C)=CCc1c(O)ccc(C(=O)/C=C/c2ccc(O)cc2)c1O` is reported as 0% (SARS-CoV-2; viral cytopathic effect; Vero E6; 25 µM).
`O=c1ccc2ccc(OCCCCN3CCN(c4cccc5sccc45)CC3)cc2[nH]1` has an EC50 of over 100 µM (SARS-CoV-2; viral replication, high-content imaging screen; cell-based).
With `COc1ccc(C[C@@H]2c3cc(Oc4cc(C[C@@H]5c6cc(O)c(OC)cc6CCN5C)ccc4O)c(OC)cc3CCN2C)cc1` the inhibition was 0% (SARS-CoV-2; viral cytopathic effect; Vero E6; 3.125 µM).
With `CNCCN(C)c1nc(NC(C)c2ccccc2)c2ccccc2n1` (stereo not shown) the efficacy was 117% (SARS-CoV-2; cytopathic effect, cell-based CPE; USA_WA1/2020; round 2, 5-point dilution).
With `CC(C)=CCN1Cc2cc(Cl)cc3[nH]c(=S)n(c23)C[C@@H]1C` the EC90 was 0.676 µM (SARS-CoV-2; viral replication; 293T-ACE2, USA-WA1/2020).
With `COc1ccc(-c2nc(CN3CCC(C(=O)NCCCN4CCN(c5ccccc5F)CC4)CC3)c(C)o2)cc1OC` the maximal response was 73.7% (SARS-CoV-2; cytopathic effect, cell-based CPE; USA_WA1/2020; round 2, 5-point dilution).
`c1ccc(C(O[C@@H]2CCCN(CCc3ccc4c(c3)OCO4)C2)c2ccccc2)cc1` has an EC50 of 87.1 µM (SARS-CoV-2; viral replication, high-content imaging screen; cell-based).
For `CC1=C[C@]23C(=O)[C@@H](C=C(CO)[C@@H](O)[C@]2(O)[C@H]1O)[C@H]1[C@@H](C[C@H]3C)C1(C)C`, the IC50 was over 2 µM (SARS-CoV-2; viral replication; Huh-7).
`NCCCC[C@H](N[C@@H](CCc1ccccc1)C(=O)O)C(=O)N1CCC[C@H]1C(=O)O`: “viral replication inhibition” “inactive” (SARS-CoV-2; Vero E6; concentration not given, NYC laboratory).
With `Cc1ncccc1-c1nc2cc(C(=O)NCCCc3ccccc3)ccc2o1` the AC50 was 25.1 µM (SARS-CoV-2; cytopathic effect, cell-based CPE; USA_WA1/2020).
For `CC(C)(C)[C@H](NC(=O)C(F)(F)F)C(=O)N1C[C@H]2[C@@H]([C@H]1C(=O)N[C@H](C#N)C[C@@H]1CCNC1=O)C2(C)C`, the inhibition was 18.3% (SARS-CoV-2; viral replication, infectious virus; Vero E6; 0.00195 µM).
For `COc1ccc2[nH]c(C(O)c3ccc(Cl)cc3)c(CCNC(C)=O)c2c1` (stereo not shown), antiviral activity read “inactive” (SARS-CoV-2; viral replication, FISH-Flow dsRNA staining; Vero C1008 (VeroE6); 1 µM).
`Cc1nn(-c2ccc(Cl)cc2)c2c1C(c1c(Cl)cccc1Cl)C(C#N)=C(N)O2` (stereo not shown) gave a Ct value of 25.3 cycles (SARS-CoV-2; RT-qPCR, item: viral RNA; Vero; 10 µM; higher means less virus).
With `COc1ccc2cc1Oc1ccc(cc1)C[C@H]1c3cc(c(OC)cc3CCN1C)Oc1c(OC)c(OC)cc3c1[C@H](C2)N(C)CC3` the EC90 was 1.7 µM (SARS-CoV-2; viral replication, inhibitor; Vero E6, USA-WA1/2020; 24 h).
`CCOC1O[C@H]([C@@H](COCc2ccccc2)OCc2ccccc2)[C@H](OCc2ccccc2)[C@H]1O` (stereo partly shown) gave an EC50 of over 50.1 µM (SARS-CoV-2; viral replication, GFP plate reader screen; cell-based).
`CO[C@@H]1CC/C=C/c2cccc(c2)[C@@H](CCNC(=O)OC(C)(C)C)OC(=O)[C@@H]2CCCN(N2)C(=O)[C@H](C)NC(=O)[C@H](C(C)C)NC(=O)[C@@H]1C` — result for “viral replication inhibition”: “inactive” (SARS-CoV-2; Vero E6; concentration not given, NYC laboratory).
The EC50 of `CNC(=O)[C@@H](c1ccccc1)N1CCc2cc(OC)c(OC)cc2[C@@H]1CCc1ccc(C(F)(F)F)cc1` is reported as over 25.1 µM (SARS-CoV-2; viral replication, high-content imaging screen; cell-based).
`CN(C)C(=N)N=C(N)N` — result for “viral RNA level”: 0.399 and 0.309 (SARS-CoV-2; SB2; 500 µM, unit not given; relative to: DMSO).
`CC(C)/N=c1\cc2n(-c3ccc(Cl)cc3)c3ccccc3nc-2cc1Nc1ccc(Cl)cc1` gave an EC90 of 2.33 µM (SARS-CoV-2; viral replication; Huh-7-ACE2, USA-WA1/2020).
The IC50 of `CC(=O)[C@H]1CC[C@H]2[C@@H]3CCC4=CC(=O)CC[C@]4(C)[C@H]3CC[C@]12C` is reported as over 10 µM (SARS-CoV-2; viral replication, RT-qPCR; A549 expressing ACE2).
Under “serious adverse events”, `CC[C@H](C)[C@H](NC(=O)[C@H](CC(C)C)NC(=O)[C@H](Cc1c[nH]c2ccccc12)NC(=O)[C@H](CCC(N)=O)NC(=O)[C@@H](NC(=O)[C@H](Cc1ccccc1)NC(=O)[C@H](C)NC(=O)[C@H](CCCCNC(=O)COCCOCCNC(=O)COCCOCCNC(=O)CC[C@H](NC(=O)CCCCCCCCCCCCCCCCCCC(=O)O)C(=O)O)NC(=O)[C@H](CCC(N)=O)NC(=O)[C@H](C)NC(=O)[C@@H](NC(=O)[C@H](CCCCN)NC(=O)[C@H](CC(=O)O)NC(=O)[C@H](CC(C)C)NC(=O)C(C)(C)NC(=O)[C@@H](NC(=O)[C@H](CO)NC(=O)[C@H](Cc1ccc(O)cc1)NC(=O)[C@H](CC(=O)O)NC(=O)[C@H](CO)NC(=O)[C@@H](NC(=O)[C@H](Cc1ccccc1)NC(=O)[C@@H](NC(=O)CNC(=O)[C@H](CCC(=O)O)NC(=O)C(C)(C)NC(=O)[C@@H](N)Cc1ccc(O)cc1)[C@@H](C)O)[C@@H](C)O)[C@@H](C)CC)[C@@H](C)CC)C(C)C)C(=O)N[C@@H](C)C(=O)NCC(=O)NCC(=O)N1CCC[C@H]1C(=O)N[C@@H](CO)C(=O)N[C@@H](CO)C(=O)NCC(=O)N[C@@H](C)C(=O)N1CCC[C@H]1C(=O)N1CCC[C@H]1C(=O)N1CCC[C@H]1C(=O)N[C@@H](CO)C(N)=O` is recorded as 0% (healthy human; 0.25 mg, single ascending dose).
For `CN(C)CCNC(=O)c1ccc2c(c1)C1(CCN(CC3CC3)C1)CN2Cc1ccccc1` (stereo not shown), the maximum response was 92% (SARS-CoV-2; cytopathic effect; USA_WA1/2020; retest, 8-point, duplicates).
`Fc1ccc([C@@H]2CCNC[C@H]2COc2ccc3c(c2)OCO3)cc1` gave an IC50 of 2.4 µM (SARS-CoV-2; viral replication, RT-qPCR; A549-ACE2).
For `CCN(CC)CCNC(=O)c1[nH]c2ccccc2c1Sc1ccc(Cl)cc1`, the efficacy was 92% (SARS-CoV-2; cytopathic effect; USA_WA1/2020; retest, 8-point, duplicates).
`O=C(/C=C/c1ccc(O)c(O)c1/C=C/c1ccc(O)c(O)c1)O[C@H](Cc1ccc(O)c(O)c1)C(=O)O` has a CPE inhibition of 0% (SARS-CoV-2; viral replication; Vero E6; 25 µM).
`CCCCN(C)CCCNC(=O)c1ccc2nc(N3CCCCC3)sc2c1` has a maximum response of 66.5% (SARS-CoV-2; cytopathic effect; USA_WA1/2020; round 2, 5-point).
With `Cc1nn(-c2ccc(Cl)cc2)c2c1C(c1ccc(Cl)cc1Cl)C(C#N)=C(N)O2` (stereo not shown) the viral reduction was 1.65% (SARS-CoV-2; viral replication; Vero; 1 µM).
`CC[C@H]1CN2CC[C@H]1C[C@@H]2[C@@H](O)c1ccnc2ccc(OC)cc12` has an EC50 of over 25.1 µM (SARS-CoV-2; viral replication, high-content imaging screen; cell-based).
`Cc1ccc(N(CC2=NCCN2)c2cccc(O)c2)cc1` gave an IC50 of over 2 µM (SARS-CoV-2; viral replication; Huh-7).
`COc1cc2c(cc1OC)CN(CCc1ccc(NC(=O)c3cc(OC)c(OC)cc3NC(=O)c3cnc4ccccc4c3)cc1)CC2` gave an IC50 of over 10 µM (SARS-CoV-2; viral replication, anti-nucleoprotein immunostaining; Vero E6).
With `Cc1ccc(C)c(Nc2cc(C(=O)NCCCN(C)C3CCCCC3)c3ccccc3n2)c1` the AC50 was 6.31 µM (SARS-CoV-2; cytopathic effect, cell-based CPE; USA_WA1/2020; round 2, 5-point dilution).
`COc1cccc2c(NCc3ccccc3)nc(-n3c(N)nc4ccccc43)nc12` — result for “viral replication inhibition”: “inactive” (SARS-CoV-2; Vero E6; concentration not given, NYC laboratory).
With `CCN(CC)C(=O)C1(c2ccccc2)CC1CN` (stereo not shown) the IC50 was over 10 µM (SARS-CoV-2; viral replication; A549 expressing ACE2; inactive set pIC50 4).
`COc1ccc2c(Sc3ccccc3)c(C(=O)NCCCN3CCCCC3)[nH]c2c1` gave an AC50 of 12.6 µM (SARS-CoV-2; cytopathic effect, cell-based CPE; USA_WA1/2020; round 2, 5-point dilution).
Under activity class, `O=C(CCCN1CCC(O)(c2ccc(Cl)cc2)CC1)c1ccc(F)cc1` is recorded as “active” (SARS-CoV-2; viral replication; Vero E6; concentration not given).
With `CCCCCCCCNC(C)C(O)c1ccc(SC(C)C)cc1` (stereo not shown) the EC50 was over 100 µM (SARS-CoV-2; viral replication, high-content imaging screen; BetaCov/Belgium/GHB-03021/2020; cell-based).
`O=C(O[C@@H]1Cc2c(O)cc(O)cc2O[C@@H]1c1cc(O)c(O)c(O)c1)c1cc(O)c(O)c(O)c1` gave a CPE inhibition of 0% (SARS-CoV-2; viral replication; Vero E6; 6.25 µM).
`Cc1nn(-c2ccc(Cl)cc2)c2c1C(c1ccc(Cl)cc1)C(C#N)=C(N)O2` (stereo not shown) gave a Ct value of 25.5 cycles (SARS-CoV-2; RT-qPCR, item: viral RNA; Vero; 10 µM; higher means less virus).
The IC50 of `NS(=O)(=O)Cc1noc2ccccc12` is reported as over 2 µM (SARS-CoV-2; viral replication; Huh-7).
Under “viral replication inhibition”, `Cc1cc(Nc2cc(N)ncn2)c(=O)n2c1C(=O)NC21CCCCC1` is recorded as “inactive” (SARS-CoV-2; concentration not given, Paris laboratory).
For `CN1CCC(COc2cnc(-c3cccc(Cn4nc(-c5cccc(C#N)c5)ccc4=O)c3)nc2)CC1`, the EC50 was over 100 µM (SARS-CoV-2; viral replication, GFP plate reader screen; BetaCov/Belgium/GHB-03021/2020; cell-based).
For `Cc1nn(-c2ccc(Cl)cc2)c2c1C(c1ccc(I)cc1)C(C#N)=C(N)O2` (stereo not shown), the Ct value was 23.7 cycles (SARS-CoV-2; RT-qPCR, item: viral RNA; Vero; 1 µM; higher means less virus).
The inhibition of `O=C(O)C1(c2ccc(-c3ccc(Cl)c(Cl)c3)c(F)c2)CC1` is reported as -0.508% (Replicase polyprotein 1ab, main protease (rep, Severe acute respiratory syndrome coronavirus 2, UniProt P0DTD1); reporter gene (mKate2), inhibitor; 20 µM).
The IC50 of `COc1ccc(C(CN(C)C)C2(O)CCCCC2)cc1` (stereo not shown) is reported as over 10 µM (SARS-CoV-2; viral replication; Vero E6; inactive set pIC50 4).
`COc1cc(C2C(C#N)=C(N)Oc3c2c(C)nn3-c2ccc(Cl)cc2)cc(OC)c1OC` (stereo not shown) — result for “viral titre log reduction”: 0.651 log10 (SARS-CoV-2; Vero C1008; 10 µM; relative to: positive control).
